Published values gathered from unrelated publications.
A part holds a random share of what one study measured. Changes are numbered by the printed parent chain.

Block 1 — target: JDP2, bZIP domain (human); method: DHFR protein complementation; sample: yeast; relative to: wild-type JUN-FOS pair; reading: higher = stronger binding; quantity: binding fitness
Notes: single substitutions, most at no-binding floor
Starting sequence: JUN, bZIP domain (human); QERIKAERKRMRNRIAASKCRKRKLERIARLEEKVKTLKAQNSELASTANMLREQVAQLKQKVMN; partner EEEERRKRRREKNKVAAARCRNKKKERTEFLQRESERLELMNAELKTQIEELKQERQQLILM
M51N: 0.379 natural log
L52F: 0.0777 natural log
R53H: 0.179 natural log
M51H: 0.258 natural log
A49K: 0.212 natural log
T48N: 0.165 natural log
K36N: 0.32 natural log
A49C: 0.262 natural log
N42H: 0.297 natural log
R53M: 0.217 natural log
Q41L: 0.206 natural log
E32D: 0.352 natural log
E44W: 0.111 natural log
V56M: 0.0319 natural log
S47V: 0.353 natural log
V35E: -0.0337 natural log
Q58P: -0.000712 natural log
N42E: 0.217 natural log
A46N: 0.33 natural log
K39T: 0.315 natural log
L31G: 0.0508 natural log
L38I: 0.0283 natural log
A46H: 0.227 natural log

Block 2 — target: UBE2Q1 UBC core domain (UniProt Q7Z7E8); method: yeast two-hybrid; sample: yeast; notes: mostly zero background; relative to: not given; reading: higher = stronger interaction; quantity: lacZ reporter activity
B1: TRAF5 RING domain (UniProt O00463); chain FVERLEERYKCAFCHSVLHNPHQTGCGHRFCQHCILSLRELNTVPICPVDKEVIKSQEVFK
B2: VPS41 RING domain (UniProt P49754); chain KGVLVDEENICESCLSPILPSDAAKPFSVVVFHCRHMFHKECLPMPSMNSAAQFCNICSAKNRGPGSAI
B3: RNF111 RING domain (UniProt Q6ZNA4); chain EGTEEDTEEKCTICLSILEEGEDVRRLPCMHLFHQVCVDQWLITNKKCPICRVDIEAQLPSE
B4: TRIML1 RING domain (UniProt Q8N9V2); chain LMENLREELTCFICLDYFSSPVTTECGHSFCLVCLLRSWEEHNTPLSCPECWRTLEGPHFQS
B5: RNF208 RING domain (UniProt Q9H0X6); chain SSAAAGEPLECPTCGHSYNVTQRRPRVLSCLHSVCEQCLQILYESCPKYKFISCPTCRRETVLFTDYG
B6: RNF38 RING domain (UniProt Q9H0F5); chain PNNHQSEQTLCVVCMCDFESRQLLRVLPCNHEFHAKCVDKWLKANRTCPICRADASEVHRDS
B7: SH3RF2 RING domain (UniProt Q8TEC5); chain DDLTLLDLLECPVCFEKLDVTAKVLPCQHTFCKPCLQRVFKAHKELRCPECRTPVFSNIEAL
B8: NEURL1 RING domain (UniProt O76050); chain VTPGLGQWSDECTICYEHAVDTVIYTCGHMCLCYACGLRLKKALHACCPICRRPIKDIIKT
Construct (chain): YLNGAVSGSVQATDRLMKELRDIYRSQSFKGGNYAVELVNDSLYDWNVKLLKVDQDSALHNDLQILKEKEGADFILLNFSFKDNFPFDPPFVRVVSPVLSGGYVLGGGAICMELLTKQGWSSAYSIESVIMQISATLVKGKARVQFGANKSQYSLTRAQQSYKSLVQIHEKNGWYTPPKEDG
FQGDVDEDLICPICSGVLEEPVQAPHCEHAFCNACITQWFSQQQTCPVDRSVVTVAHLRP (RNF41 RING domain (UniProt Q9H4P4)): 0
B1 (TRAF5 RING domain): 0
B2 (VPS41 RING domain): 0
B3 (RNF111 RING domain): 0
B4 (TRIML1 RING domain): 0
B5 (RNF208 RING domain): 0
VEPSEENSKDCVVCQNGTVNWVLLPCRHTCLCDGCVKYFQQCPMCRQFVQESFALC (CGRRF1 RING domain (UniProt Q99675)): 0
B6 (RNF38 RING domain): 0
B7 (SH3RF2 RING domain): 0
QVDKAVFHMQSVKCLKCQEQKRAVLPCQHAALCELCAEGSECPICQPGRAHTLQS (UNK RING domain (UniProt Q9C0B0)): 0
B8 (NEURL1 RING domain): 0
PAELEVQASECVVCLEREAQMIFLNCGHVCCCQQCCQPLRTCPLCRQDIAQRLRIY (LRSAM1 RING domain (UniProt Q6UWE0)): 0

Block 3 — method: RNA Bind-n-Seq; form: RNA; sample: in vitro; concentration: not given; relative to: input RNA pool; reading: higher = stronger binding; quantity: bound/input enrichment
Target: RING finger protein unkempt homolog, zinc fingers 1-6, GST-SBP tag (UNK, Homo sapiens, UniProt Q9C0B0, residues 30-357)
Notes: RNA with constant flanks, human and mouse sites, ends assumed
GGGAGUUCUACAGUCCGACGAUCUUUAUAUUUAACUAAAUGUAAGGUACGAACUAUGACAUAUUAAACUUUUCUUGCCCUUCCUAGUUCUGAGGUAGAUGUGCACAUAUCUGCCACCACAUUCCAUAUGUGUUGAGUAGUUAACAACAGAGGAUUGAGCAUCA: 0.936 ratio
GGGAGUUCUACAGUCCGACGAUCAUUUCCAGUUGUCUGAGGUGGCCAGGACAUUACUCCCGUGCGCCUUACCCAUACUUCAGUAGCAGGCAUUUCUCAUUGAACUGUAGACCACCUUUUCUGUUUGAGUCUGGAACGCAGUUUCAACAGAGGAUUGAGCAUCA: 0.253 ratio
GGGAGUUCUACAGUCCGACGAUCUCUGCUAAAGCAGCUAUCGACUGGUUUGAUGGUAAAGAAUUCUCUGGGAAUCCUAUUAAAGUUUCAUUUGCUACCCGCCGAGCUGACUUCAAUCGGGGUGGUGGAAAUGGUCGCGGAGGCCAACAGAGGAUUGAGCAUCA: 0.163 ratio
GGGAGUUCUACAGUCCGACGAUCCCUACAGUUUUUAAUUUCUACAAUUAUCUAAGAACACAUCCUCUUUUGCUGAGACGUCAUUUUGGAUCAUCUGAUACAUUUUCCACACAUAUGAGCCUAACAGGAAAAAGUGGACUGGCACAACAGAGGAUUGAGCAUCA: 0.297 ratio
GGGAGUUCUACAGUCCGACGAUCUAUACCUCCAGAGAGCAGACUGUCUACUACGCCAAAGCAUUCUCGAGAGAUUUGCCCAGAGCUGUAGAAAUUCUUGCUGACAUAAUUCAGAACAGCACACUGGGAGAAGCAGAGAUUGAGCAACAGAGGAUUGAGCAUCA: 0.219 ratio
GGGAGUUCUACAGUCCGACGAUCAUUGCAAAAAAUGUAUCUACCUCCAAACCUGAGUUUGAAUUUACCACACUGGACUUUCCUGAACUGCAAGGUGCAGAGAACAAUAUGUCAGAGAUACAGAAGCAACCCAAGUGGGGACCUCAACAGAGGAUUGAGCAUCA: 0.207 ratio
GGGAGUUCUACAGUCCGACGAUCACAAAACAAGCAGCAUUUAAAGCUGUUUCUGAAGUUUGUCGCAUUCCUACCCAUCUCUUUACUUUUAUCCAGUUUAAGAAAGAUCUGAAGGAAAGCAUGAAAUGUGGCAUGUGGGGUCGUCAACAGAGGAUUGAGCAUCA: 0.214 ratio
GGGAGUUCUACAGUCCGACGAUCACCUUCAUUUAACUCAGCUGUCAAUCAGGAAGGUAUUACGUCAAAUGCCAAUAAUGGAUCUACGGCGGCUCAUAAUACUUAUGAUGAGAUUGAAGGAGGUGGCUUCUUGGCAACACCACACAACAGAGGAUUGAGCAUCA: 0.203 ratio
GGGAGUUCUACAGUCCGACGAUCUUGAUUUUUAUUUCUGUGGGGAACUUUAUUUUUCUUGGCAAAUAACUAAAGUUCUUGUCCAUGUAAUUUCUGUGGUCUCUAUUCAGCUUGGGUUUCAUGUUUUAAAAUAAACAAUUUUAACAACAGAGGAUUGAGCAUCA: 0.293 ratio
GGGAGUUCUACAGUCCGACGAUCACCCUGCGGAGAAAGGGCAAUAUCAUUCUAAUCCCUGAAAGAAGCAACAGCCCCGAAAACACUAGAAAUAUCUUCUACAAAGGAACCUCCCCCACACGGGCUUAUAAGGAUUGAGUGAUGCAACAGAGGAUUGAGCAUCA: 0.909 ratio
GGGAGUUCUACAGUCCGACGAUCUCUGUUUGUUUUUCUGUUGUUGUAGCUUUUUUUGUCCUGUUAUGUUUUAUCUGUUUGUAUUUUAGAAGGGGGAGGGGAAGUUGUAAUUAUUUCAUCUAAGUCUCCCAUUAUAUAUCUGUGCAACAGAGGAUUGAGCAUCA: 6.54 ratio

Block 4 — target: CCNF, cyclin fold, Cln2 fusion (human); method: yeast growth competition, sequencing; sample: yeast; notes: strong parent motif; relative to: not given; reading: higher = stronger binding; quantity: normalised enrichment score
Starting sequence: GMNC docking peptide (human); KNAKRNLSSEFAN
N2D: 0.469
E10A: 0.509
A12R: 0.69
E10V: 1.02
L7I: 0.728
E10L: 0.952
F11E: 0.0337
N2Q: 0.54
R5Y: -0.132
S8W: 1.09
K4H: 0.233
S8H: 0.7
S9C: 0.813
A12Q: 0.497
A3G: 0.562
R5T: 0.651
